Measured values gathered from unrelated publications.
Lines come from different studies, so protocols differ. Values joined by “and” are separate records of one study, mostly repeats; a detail may differ.
T1: itself; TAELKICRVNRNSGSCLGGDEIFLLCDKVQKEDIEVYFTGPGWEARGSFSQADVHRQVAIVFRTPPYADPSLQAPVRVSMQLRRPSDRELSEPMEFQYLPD
T2: itself; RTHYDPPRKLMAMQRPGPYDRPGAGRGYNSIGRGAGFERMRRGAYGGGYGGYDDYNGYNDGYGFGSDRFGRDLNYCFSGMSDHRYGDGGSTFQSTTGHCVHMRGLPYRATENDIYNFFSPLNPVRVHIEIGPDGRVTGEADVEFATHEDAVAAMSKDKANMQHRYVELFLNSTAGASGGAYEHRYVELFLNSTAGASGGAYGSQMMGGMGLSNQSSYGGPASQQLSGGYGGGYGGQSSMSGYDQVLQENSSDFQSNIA
B1: int K362A (Listeria innocua, UniProt Q928V6); chain MKAAIYIRVSTQEQVENYSIQAQTEKLTALCRSKDWDVYDTFIDGGYSGSNMNRPALNEMLSKLHEIDAVVVYRLDRLSRSQKDTITLIEEYFLKNNVEFVSLSETLDTSSPFGRAMIGILSVFAQLERETIRDRMVMGKIKRIEAGLPLTTAKGRTFGYDVIDTKLYINEEEAKQLRLIYDIFEEEQSITFLQKRLKKLGFKVRTYNRYNNWLTNDLYCGYVSYKDKVHVKGIHEPIISEEQFYRVQEIFSRMGKNPNMNKESASLLNNLVVCSKCGLGFVHRRKDTVSRGKKYHYRYYSCKTYKHTHELEKCGNKIWRADKLEELIIDRVNNYSFASRNIDKEDELDSLNEKLKIEHAKAKRLFDLYINGSYEVSELDSMMNDIDAQINYYEAQIEANEELKKNKKIQENLADLATVDFNSLEFREKQLYLKSLINKIYIDGEQVTIEWL
B2: RELA dimerization domain; chain TAELKICRVNRNSGSCLGGDEIFLLCDKVQKEDIEVYFTGPGWEARGSFSQADVHRQVAIVFRTPPYADPSLQAPVRVSMQLRRPSDRELSEPMEFQYLPD
B3: HNRNPH1 192-449 (Homo sapiens, UniProt P31943); chain RTHYDPPRKLMAMQRPGPYDRPGAGRGYNSIGRGAGFERMRRGAYGGGYGGYDDYNGYNDGYGFGSDRFGRDLNYCFSGMSDHRYGDGGSTFQSTTGHCVHMRGLPYRATENDIYNFFSPLNPVRVHIEIGPDGRVTGEADVEFATHEDAVAAMSKDKANMQHRYVELFLNSTAGASGGAYEHRYVELFLNSTAGASGGAYGSQMMGGMGLSNQSSYGGPASQQLSGGYGGGYGGQSSMSGYDQVLQENSSDFQSNIA

Substance = MAPT R2R3 peptide, acetyl-lysine, second lysine; partner = itself; test = self-assembly into fibrils, ThT fluorescence, negative-stain TEM; setting = 500 µM, pH 7.4, acetylated peptide, TFA-disaggregated; quantity = t1/2max of aggregation; result = 76.3 h
Substance = B1 (int K362A); partner = itself; test = attB integration by attP; setting = 250 nM, 20 min, saturating integrase; quantity = integration fraction; result = 0.12 fraction
Substance = BCL10 R58Q, Alexa488 label (Homo sapiens); partner = itself; test = confocal fluorescence microscopy; setting = R58Q, full length, MBP removed; quantity = critical concentration of polymerization; result = 0.25 µmol/L
Substance = DUT nuclear isoform (Homo sapiens); partner = itself; test = non-reducing SDS-PAGE western blot; test system = total cell extracts; setting = 18 h, not purified, with: hydrogen peroxide 0.1-0.5 mM; scale = baseline: untreated cells, higher = more dimer; quantity = dimer formation; result = 4 fold
Substance = B2 (RELA dimerization domain); partner = T1, itself; test = AUC; quantity = Kd; result = 0.8 µM
Substance = LL-37 mature (Homo sapiens); partner = itself; test = native MS; test system = nanodiscs; quantity = molecule per partner; result = 5 and 4
Substance = MAPT R1R3 peptide, acetyl-lysine, second and third; partner = itself; test = self-assembly into fibrils, ThT fluorescence, negative-stain TEM; setting = 500 µM, pH 7.4, acetylated peptide, TFA-disaggregated; quantity = t1/2max of aggregation; result = 47.5 h
Substance = GCN4 leucine zipper; partner = itself; test = two-hybrid; setting = late; quantity = β-galactosidase activity; result = 4820 Miller units and 5130 Miller units
Substance = FUS prion-like domain; partner = itself; test = nanoparticle tracking analysis; scale = baseline: full-length FUS, higher = greater decrease; quantity = cluster abundance decrease; result = 60 fold
Substance = B3 (HNRNPH1 192-449); partner = T2, itself; test = trapping in hydrogel, hydrogel binding; setting = pH 7.5, 4 °C, NaCl 200 mM; quantity = binding; result = binds
Substance = MAPT R2R3 peptide, acetyl-lysine, three lysines; partner = itself; test = ThT fluorescence aggregation; quantity = t1/2max; result = 61.4 h
Substance = dpo1 D231A/D318A (Saccharolobus solfataricus); partner = itself; test = DNA synthesis rate; setting = 60 °C, cooperative fit, kinetic; quantity = Kd; result = 0.542 µM

Excerpt of the above:
Substance = GCN4 leucine zipper; partner = itself; test = two-hybrid; setting = late; quantity = β-galactosidase activity; result = 4820 Miller units and 5130 Miller units
